Measured values of several laboratories.
Protocols differ between the studies behind these lines. Values joined by “and” are separate records of one study, mostly repeats; a detail may differ. ± marks the error that the study gave.
Target: C-X-C chemokine receptor type 4 (CXCR4, Homo sapiens, UniProt P61073)

`COc1ccccc1-c1nnc2n1N=C(c1ccc([N+](=O)[O-])cc1)CS2` gave an EC50 of over 80000 nM (β-arrestin recruitment, agonist).
The IC50 of `CN(C)c1nccc(CN(C)S(=O)(=O)Cc2cccc3cccnc23)n1` is reported as about 10000 nM (β-arrestin recruitment).
The IC50 of `CC(=O)[O][Cu+].CN1CCCN2CCN(CCCN(Cc3ccccc3)CC2)CC1` is reported as 53.5 nM and ~50 nM (calcium signal, antagonist, fluorescence).
For `CCOc1ccccc1-c1nnc2n1N=C(c1ccc(N3CCCC3)cc1)CS2`, the EC50 was 50 nM (cAMP, agonist).
The IC50 of `N=C(N)NCCC[C@H](NC(=O)[C@@H]1CSSC[C@H](NC(=O)[C@H](Cc2cccc3ccccc23)NC(=O)[C@H](CCCNC(=N)N)NC(=O)[C@@H](N)CCCNC(=N)N)C(=O)N[C@@H](Cc2ccc(O)cc2)C(=O)N[C@@H](CCC(N)=O)C(=O)N[C@@H](CCCCN)C(=O)N2CCC[C@@H]2C(=O)N2CCC[C@H]2C(=O)N[C@@H](Cc2ccc(O)cc2)C(=O)N[C@@H](CCCNC(=N)N)C(=O)N[C@@H](CCCNC(N)=O)C(=O)N1)C(=O)NCC(=O)N1CCC[C@@H]1C(=O)O` is reported as 0.02 nM.
The IC50 of `CC(=O)[O][Cu+].c1ccc(CN2CCN3CCN(CC2)CCN(Cc2ccccc2)CC3)cc1` is reported as 44.5 nM (ligand displacement, flow cytometry).
`CCc1noc(CN(C)Cc2cn(-c3ccccc3)nc2-c2ccc(Cl)cc2)n1` gave an IC50 of about 16000 nM (β-arrestin recruitment).
`N=C(N)NCCC[C@@H]1NC(=O)[C@H](CCCNC(=O)c2ccc(F)cc2)NC(=O)[C@@H](Cc2ccc(O)cc2)NC(=O)CNC(=O)[C@H](Cc2ccc3ccccc3c2)NC1=O` has an IC50 of 9 ± 1 nM.
`CCS(=O)(=O)c1ncc(N(Cc2ccco2)Cc2ccc(C)o2)c(C(=O)Nc2ccccc2F)n1` has an IC50 of about 2000 nM (β-arrestin recruitment).
For `COc1ccccc1-c1nnc2n1N=C(c1ccc(F)cc1)CS2`, the EC50 was over 80000 nM (β-arrestin recruitment, agonist).
With `CC(=O)[O][Zn+].CN1CCN2CCN(CC1)CCN(Cc1ccccc1)CC2` the IC50 was 40 nM and ~50 nM (calcium signal, antagonist, fluorescence).
For `COc1ccccc1-c1nnc2n1N=C(c1ccccc1)CS2`, the EC50 was over 80000 nM (β-arrestin recruitment, agonist).
The IC50 of `N=C(N)NCCC[C@H](NC(=O)[C@@H]1CSSC[C@H](NC(=O)[C@H](Cc2ccc3ccccc3c2)NC(=O)[C@H](CCCNC(=N)N)NC(=O)[C@H](CCCNC(=N)N)NC(=O)CN2CCN(CC(=O)O)CCN(CC(=O)O)CCN(CC(=O)O)CC2)C(=O)N[C@@H](Cc2ccc(O)cc2)C(=O)N[C@@H](CCCNC(N)=O)C(=O)N[C@@H](CCCCN)C(=O)N[C@H](CCCCN)C(=O)N2CCC[C@H]2C(=O)N[C@@H](Cc2ccc(O)cc2)C(=O)N[C@@H](CCCNC(=N)N)C(=O)N[C@@H](CCCNC(N)=O)C(=O)N1)C(N)=O` is reported as 68 nM (ligand displacement in cells, radioligand).

Some of these lines once more:
`CCc1noc(CN(C)Cc2cn(-c3ccccc3)nc2-c2ccc(Cl)cc2)n1` gave an IC50 of about 16000 nM (β-arrestin recruitment).
For `COc1ccccc1-c1nnc2n1N=C(c1ccccc1)CS2`, the EC50 was over 80000 nM (β-arrestin recruitment, agonist).
